Measurements of several laboratories.
Lines come from different studies, so protocols differ. ± marks the error that the study gave.
Sequence of UniProt P07948 (whole entry, looked up): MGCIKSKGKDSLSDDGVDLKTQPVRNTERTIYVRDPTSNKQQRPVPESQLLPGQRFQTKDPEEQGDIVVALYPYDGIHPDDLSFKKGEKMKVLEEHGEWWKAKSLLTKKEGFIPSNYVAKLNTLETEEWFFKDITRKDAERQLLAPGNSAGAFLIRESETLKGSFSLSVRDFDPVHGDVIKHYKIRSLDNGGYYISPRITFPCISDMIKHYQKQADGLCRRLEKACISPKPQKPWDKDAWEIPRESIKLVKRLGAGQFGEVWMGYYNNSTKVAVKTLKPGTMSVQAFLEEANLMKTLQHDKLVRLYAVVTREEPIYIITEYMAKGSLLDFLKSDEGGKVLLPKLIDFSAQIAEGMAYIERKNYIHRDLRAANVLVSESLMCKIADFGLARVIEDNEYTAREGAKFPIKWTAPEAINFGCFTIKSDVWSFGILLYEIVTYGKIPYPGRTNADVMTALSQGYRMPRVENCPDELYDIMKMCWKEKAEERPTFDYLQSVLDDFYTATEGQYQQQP

Compound = O=C(Nc1cnccc1-c1ccc([18F])nc1)c1ccnc(NC(=O)C2CC2)c1; test system = FVB/NJ mice, both sexes, liver; conditions = intravenous, 20 min, median, no P-gp inhibitor; endpoint = SUV; value = 8.96
Compound = C=CC(=O)Nc1cc(Nc2nccc(-c3c[nH]c4ccccc34)n2)c(OC)cc1N(C)CCN(C)C; test = storage stability; test system = human dried blood spot; conditions = 10 d, -80 °C, LLOQ level; endpoint = recovery; value = 82.9%
Compound = Cc1ncsc1-c1ccc(C(C)NC(=O)C2CC(O)CN2C(=O)C(NC(=O)CCCCCCCCCCN2CCCC(Nc3ncc(Cl)c(Nc4ccccc4S(=O)(=O)C(C)C)n3)C2)C(C)(C)C)cc1 (stereo not drawn); tested on = 22Rv1; test = RNA-seq, measured: PTCH2 mRNA; conditions = concentration not given; how to read = reference: DMSO; endpoint = log2 fold change; value = -2.33
Compound = COC1CN([C@H]2CC[C@H]([C@@]3(C)Oc4c(Cl)cc(C(=O)NCc5c(SC)cc(C)[nH]c5=O)c(C)c4O3)CC2)C1; test = RNA-seq, measured: RAB36; test system = human, whole blood; conditions = dose not given, 24 h; how to read = reference: pretreatment baseline; endpoint = log2 fold change; value = 1.53
Compound = C=C(NC(=O)c1csc(-c2nc3c(cc2O)-c2nc(cs2)C(=O)NC(C(C)O)C(=O)NC(=C(C)OC)c2nc(cs2)C(=O)NC2c4nc(cs4)C(=O)NC(COC(=O)c4c5c6c(cccc6n4O)COC(=O)C(OC4CC(C)(O)C(N(C)C)C(C)O4)C2OC5)c2nc-3cs2)n1)C(N)=O (stereo not drawn); test system = cynomolgus monkey, male, plasma; conditions = intravenous infusion, 1.5 mg/kg twice daily, 0 to 30 h; endpoint = AUC(0-last); value = 26900 ng·h/mL
Compound = CC(C)(O)c1ncc([S@](N)(=O)=NC(=O)Nc2c3c(cc4c2CCC4)CCC3)s1; test = measured: eye disorders; test system = healthy human; conditions = oral, dose not given, all active doses pooled; endpoint = subjects with TEAEs; value = 2%
Compound = Cc1ccc(CN2C(=O)/C(=N\c3ccc(Cl)cc3Br)c3ccccc32)cc1; test system = mouse, blood; conditions = 200 mg/kg; endpoint = Lym%; value = 54.3 ± 6.39%
Compound = O=C(O)CCCOc1ccc([18F])cc1-c1cc(-c2ccccc2C(F)(F)F)n(-c2ccccc2)n1; test = OLINDA/EXM from mouse data; test system = human adults, thyroid; endpoint = absorbed dose; value = 8.8 µGy/MBq
Compound = COc1ccc(C(=O)c2c(C(=O)NCCCN(C)C)oc3ccc(Cl)cc3c2=O)cc1OC; test system = C57BL/6 mice, male, plasma; conditions = oral, 5 mg/kg; endpoint = AUC extrapolated share; value = 11%
Compound = CNCc1ccc(-c2cc(=O)c3ccc4[nH]c(C(F)(F)F)nc4c3o2)cc1; test system = ICR mice; conditions = 5 mg/kg; endpoint = oral bioavailability; value = 6.99%
Compound = C=CC(=O)Nc1cccc(Cn2ncc3cnc(Nc4cnn(CCOC)c4)nc32)c1; tested on = human MINK; test = KINOMEscan; conditions = 100 nM; how to read = reference: control; endpoint = binding; value = 84%
Compound = CC(C)C[C@@H](NC(=O)[C@@H](CC(C)C)NC(=O)[C@@H](CC(=O)O)NC(=O)[C@@H](CC(C)C)NC(=O)[C@@H](CC(C)C)NC(=O)[C@@H](CC(C)C)NC(=O)[C@H](NC(=O)[C@@H](CC(=O)O)NC(=O)[C@H](NC(=O)[C@H]1CCCN1C(=O)[C@@H](Cc1ccccc1)NC(=O)[C@@H](CC(C)C)NC(=O)[C@@H](CC(C)C)NC(=O)[C@@H](CC(=O)O)NC(=O)[C@@H](CC(C)C)NC(=O)[C@@H](Cc1ccc(O)cc1)NC(=O)[C@@H](C)NC(=O)[C@@H](CCCNC(=N)N)NC(=O)[C@@H](Cc1c[nH]c2ccccc12)NC(=O)[C@H]1CCCN1C(=O)[C@@H](CC(N)=O)NC(=O)[C@@H](CCC(N)=O)NC(=O)[C@@H](CC(=O)O)NC(=O)[C@@H](CC(=O)O)NC(=O)[C@@H](CSC1CC(=O)N(CCNC(=O)CN2CCN(CC(=O)O)CCN(CC(=O)O)CC2)C1=O)NC(=O)[C@@H](C)N)[C@H](C)O)[C@H](C)O)C(=O)N[C@H](Cc1c[nH]c2ccccc12)C(=O)O (stereo partly drawn) [fluorine-18 labelled]; test system = male nude mice, LNCaP xenograft, blood; conditions = intravenous, 1 h; endpoint = tissue uptake; value = 20 %ID/g
Compound = CNS(=O)(=O)Nc1nccc(Cc2c(C)c3ccc(Oc4ncccc4F)cc3oc2=O)c1F; tested on = KU-812F; test = cell viability; conditions = 7 days; endpoint = IC50; value = 0.945 nM
Compound = Cc1nn(-c2cccc(N)c2)c(=O)c2cnc(Nc3ccc(N4CCNCC4)cc3)nc12; tested on = Tyrosine-protein kinase Lyn (LYN, Homo sapiens, UniProt P07948); test = inhibitor, SelectScreen kinase; endpoint = IC50; value = 1730 nM
Compound = C=C[C@]1(C)C[C@@H](OC(=O)CSc2ccc(NC(=O)c3ccco3)cc2)[C@]2(C)[C@H](C)CC[C@]3(CCC(=O)[C@H]32)[C@@H](C)[C@@H]1O; test system = chicken, Mycoplasmoides gallisepticum infected, plasma; conditions = intramuscular, 80 mg/kg; endpoint = Vd/F; value = 8.58 L/kg
Compound = O=c1c(O)c(-c2ccc(N(c3ccccc3)c3ccccc3)cc2)oc2cc3ccccc3cc12; test system = DMSO; conditions = added: visible light; endpoint = CO release quantum yield; value = 0.006
Compound = COc1cccc(OC)c1-c1cc(C(=O)NC2(C(=O)O)C3CC4CC(C3)CC2C4)nn1-c1ccc(C(=O)N(C)CCOCCN(C)C(=O)[C@H](CCCCNC(=O)[C@H](CC(C)C)NC(=O)C2OC2C(=O)O)NC(=O)CN2CCN(CC(=O)[O-])CCN(CC(=O)[O-])CCN(CC(=O)[O-])CC2)cc1C(C)C.[177Lu+3] (mixture of isomers); test system = mouse HT-29 xenograft; conditions = 24 h, biodistribution; how to read = reference: tumour over large intestine; endpoint = tumour-to-large intestine ratio; value = 12.7
Compound = O=C(NS(=O)(=O)c1cccs1)c1cc2ccccc2n1Cc1ccc(Br)c2ccccc12; test system = mouse, plasma; conditions = oral, 2 mg/kg; endpoint = MRT(0-last); value = 1 h

Excerpt of the above:
Compound = C=CC(=O)Nc1cccc(Cn2ncc3cnc(Nc4cnn(CCOC)c4)nc32)c1; tested on = human MINK; test = KINOMEscan; conditions = 100 nM; how to read = reference: control; endpoint = binding; value = 84%
Compound = CC(C)C[C@@H](NC(=O)[C@@H](CC(C)C)NC(=O)[C@@H](CC(=O)O)NC(=O)[C@@H](CC(C)C)NC(=O)[C@@H](CC(C)C)NC(=O)[C@@H](CC(C)C)NC(=O)[C@H](NC(=O)[C@@H](CC(=O)O)NC(=O)[C@H](NC(=O)[C@H]1CCCN1C(=O)[C@@H](Cc1ccccc1)NC(=O)[C@@H](CC(C)C)NC(=O)[C@@H](CC(C)C)NC(=O)[C@@H](CC(=O)O)NC(=O)[C@@H](CC(C)C)NC(=O)[C@@H](Cc1ccc(O)cc1)NC(=O)[C@@H](C)NC(=O)[C@@H](CCCNC(=N)N)NC(=O)[C@@H](Cc1c[nH]c2ccccc12)NC(=O)[C@H]1CCCN1C(=O)[C@@H](CC(N)=O)NC(=O)[C@@H](CCC(N)=O)NC(=O)[C@@H](CC(=O)O)NC(=O)[C@@H](CC(=O)O)NC(=O)[C@@H](CSC1CC(=O)N(CCNC(=O)CN2CCN(CC(=O)O)CCN(CC(=O)O)CC2)C1=O)NC(=O)[C@@H](C)N)[C@H](C)O)[C@H](C)O)C(=O)N[C@H](Cc1c[nH]c2ccccc12)C(=O)O (stereo partly drawn) [fluorine-18 labelled]; test system = male nude mice, LNCaP xenograft, blood; conditions = intravenous, 1 h; endpoint = tissue uptake; value = 20 %ID/g
Compound = CNS(=O)(=O)Nc1nccc(Cc2c(C)c3ccc(Oc4ncccc4F)cc3oc2=O)c1F; tested on = KU-812F; test = cell viability; conditions = 7 days; endpoint = IC50; value = 0.945 nM
